{"data": "Measurements collected from several papers", "organism": "Pseudomonas aeruginosa", "note": "Compare with care: the assays were run in different laboratories. Numbers after ± are the reported error."}
{"SMILES": "c1ccc(-c2ccc(CNCCNCc3ccc(-c4ccccn4)cc3)cc2)nc1", "system": "PA103, mouse pneumonia model", "conditions": "intraperitoneal, 100 µg, 18 h", "quantity": "lavage cell count", "value": "decreased"}
{"SMILES": "CCCCCCCCCCCCCC(=O)N[C@@H](Cc1c[nH]c2ccccc12)C(=O)N[C@@H](CCCCN)C(=O)N[C@@H](CCCCN)C(=O)N[C@@H](CCCCN)C(=O)N[C@@H](CCCCN)C(N)=O", "system": "ATCC 27853", "quantity": "MBC", "value": "128 µg/mL"}
{"SMILES": "CC[C@@H](C)[C@@H](NC(=O)[C@@H](C)NC(=O)[C@@H](CCCNC(=N)N)NC(=O)[C@@H](Cc1c[nH]c2ccccc12)NC(=O)[C@@H](CCC(N)=O)NC(=O)[C@H](N)C(C)C)C(=O)N[C@H](CCCNC(=N)N)C(=O)N[C@@H](C(=O)N[C@H](CCCNC(=N)N)C(=O)N[C@@H](C(=O)N[C@@H](C(=O)N[C@H](CCCNC(=N)N)C(N)=O)[C@H](C)CC)C(C)C)C(C)C", "assay": "WST-8", "system": "PAO1", "conditions": "32 µg/mL, 24 h, 37 °C, preformed biofilm", "quantity": "biofilm dispersal", "value": "100%"}
{"SMILES": "CCCCCCCCCCCCCCC(=O)N[C@@H](CCCCN)C(=O)N[C@@H](CCCCN)C(=O)N[C@@H](CCCCN)C(=O)N[C@@H](CCCCN)C(=O)N[C@@H](CCCCN)C(N)=O", "system": "ATCC 27853", "quantity": "MBC", "value": "128 µg/mL"}
{"SMILES": "CNC1=C([N+](=O)[O-])C2(C(=O)Nc3ccc(Cl)cc32)C2=C(O1)C(=O)c1ccccc1C2=O (centres unmarked)", "assay": "growth", "system": "MTCC 2453", "conditions": "250 µg/mL, 24 h", "quantity": "inhibition", "value": "58.1%"}
{"SMILES": "CC(=O)[O-].O.O.O.O.[Ni+2].[O-]c1ccc(Br)cc1C=NCCN1CCOCC1", "conditions": "20 µL of 100 µM per disc", "quantity": "inhibition zone diameter", "value": "19 mm"}
{"SMILES": "CC[P+](CC)(CC)[Au-][S][C@@H]1O[C@H](COC(C)=O)[C@@H](O[C@H]2O[C@H](COC(C)=O)[C@@H](OC(C)=O)[C@H](OC(C)=O)[C@H]2OC(C)=O)[C@H](OC(C)=O)[C@H]1OC(C)=O", "system": "NCTC 13437", "conditions": "concentration not given", "scale": "reference: auranofin", "quantity": "fold activity enhancement", "value": "2 to 4"}
{"SMILES": "CCCCCCCCCC(=O)CC(=O)Nc1cccc(OC)c1", "assay": "elastin-Congo red", "system": "PAO1 wild type", "conditions": "100 µM", "quantity": "elastase inhibition", "value": "≥ 50%"}
{"SMILES": "CCOC(=O)c1cnc(N/N=C/c2c(-c3ccc(OC)cc3)nc3ncccn23)s1", "assay": "microbial growth, well diffusion", "system": "ATCC27853", "conditions": "100 µg/mL", "quantity": "inhibition zone", "value": "16 mm"}
{"SMILES": "CC[C@@H](C)[C@@H](NC(=O)[C@@H](Cc1c[nH]c2ccccc12)NC(=O)[C@@H](CCCNC(=N)N)NC(=O)[C@H](N)CCCNC(=N)N)C(=O)N[C@H](CCCNC(=N)N)C(=O)N[C@@H](C(=O)N[C@H](C)C(=O)N[C@@H](C(=O)N[C@@H](C(=O)N[C@H](CC(C)C)C(=O)N[C@H](CCCNC(=N)N)C(=O)N[C@@H](C(N)=O)C(C)C)[C@H](C)CC)C(C)C)C(C)C", "system": "PAO1, Galleria mellonella larvae", "conditions": "proleg injection, 20 µg per larva, 48 h post infection, 37 °C, dosed 1 h after infection", "quantity": "survival", "value": "18 ± 7%"}
{"SMILES": "COc1ccc(-c2ccn(CC[C@](C)(C(=O)NO)S(C)(=O)=O)c(=O)c2)c(F)c1", "system": "PA-1950, neutropenic mouse thigh infection model", "quantity": "ED50", "value": "16.8 mg/kg"}
{"SMILES": "CCc1ccc(NC(=O)CSc2nc3ccccc3c(=O)n2-c2ccc(S(N)(=O)=O)cc2)cc1", "assay": "microbial growth, well diffusion", "system": "ATCC27853", "conditions": "500 µg/mL, 24 h", "quantity": "inhibition zone", "value": "16 mm"}
{"SMILES": "CCN(CC)CCSc1nnc(C23CC4CC(CC(C4)C2)C3)n1C", "system": "IFO 3448", "conditions": "200 µg/disc, 24 h, 37 °C", "quantity": "inhibition zone diameter", "value": "< 10 mm"}
{"SMILES": "O=C1CC(c2ccc(O)cc2)Oc2cc(O)cc([O][Ga+][O]c3cc(O)cc4c3C(=O)CC(c3ccc(O)cc3)O4)c21 (centres unmarked)", "assay": "pyocyanin secretion", "conditions": "0.08 µM, 20 h", "quantity": "inhibition", "value": "91%"}
{"SMILES": "CC[C@@H](C)[C@@H](NC(=O)[C@@H](C)NC(=O)[C@@H](CCCCN)NC(=O)[C@@H](CC(C)C)NC(=O)[C@@H](CC(C)C)NC(=O)[C@H](NC(=O)[C@@H](CCCCN)NC(=O)[C@@H](CC(C)C)NC(=O)[C@@H](CCCCN)NC(=O)[C@@H](CCCCN)NC(=O)[C@@H](CCCCN)NC(=O)[C@@H](CCCCN)NC(=O)[C@@H](C)NC(=O)[C@@H](CCCCN)NC(=O)[C@@H](CO)NC(=O)[C@@H](Cc1ccccc1)NC(=O)[C@H](NC(=O)[C@@H](CCCCN)NC(=O)[C@@H](CC(C)C)NC(=O)[C@@H](Cc1ccccc1)NC(=O)[C@@H](CO)NC(=O)[C@@H](CCCCN)NC(=O)[C@@H](Cc1c[nH]c2ccccc12)NC(=O)[C@@H](CCCCN)NC(C)=O)[C@H](C)O)[C@H](C)O)C(=O)N[C@H](CO)C(=O)N[C@H](CCCCN)C(N)=O", "system": "six isolates", "conditions": "24 h, 37 °C", "quantity": "MIC geometric mean", "value": "2.5 µM"}
{"SMILES": "CCCCCCC1N=C(N)N=C(N)N1c1ccc(Cl)cc1.Cl (racemic)", "assay": "broth microdilution", "system": "PAO1", "conditions": "without thymidine", "quantity": "MIC90", "value": "> 128 µM"}
{"SMILES": "CC[C@@H](C)[C@@H](NC(=O)[C@@H](C)NC(=O)[C@@H](CCCCN)NC(=O)[C@@H](CC(C)C)NC(=O)[C@@H](C)NC(=O)[C@H](NC(=O)[C@@H](Cc1c[nH]cn1)NC(=O)[C@@H](CC(C)C)NC(=O)[C@H](NC(=O)[C@H](NC(=O)[C@@H](CCCCN)NC(=O)[C@H](NC(=O)[C@@H](C)NC(=O)[C@@H](CO)NC(=O)[C@@H](CCCCN)NC(=O)[C@@H](Cc1ccccc1)NC(=O)[C@H](NC(=O)[C@@H](CCCCN)NC(=O)[C@@H](CC(C)C)NC(=O)[C@@H](Cc1ccccc1)NC(=O)[C@@H](CO)NC(=O)[C@@H](CCCCN)NC(=O)[C@@H](Cc1c[nH]c2ccccc12)NC(=O)[C@@H](CCCCN)NC(C)=O)[C@H](C)O)C(C)C)[C@H](C)O)C(C)C)[C@H](C)O)C(=O)N[C@H](CO)C(=O)N[C@H](CO)C(N)=O", "system": "six isolates", "quantity": "MIC geometric mean", "value": "1.8 µM"}
{"SMILES": "O=c1cc(-c2ccc(O)cc2)oc2cc(O)cc([O][Ga+][O]c3cc(O)cc4oc(-c5ccc(O)cc5)cc(=O)c34)c12", "assay": "pyoverdine secretion", "conditions": "0.08 µM, 20 h", "quantity": "inhibition", "value": "52%"}
{"SMILES": "Cc1cccc2c3c(ccc12)C(=O)C1=C(OC[C@H]1C)C3=O", "assay": "LDH release", "system": "J774.A1, PAO1", "scale": "reference: mock-treated infected cells", "quantity": "EC50", "value": "12.5 µM"}
{"SMILES": "CCOc1ccc(NC(=O)CSc2nc3ccccc3c(=O)n2-c2ccc(S(N)(=O)=O)cc2)cc1", "assay": "microbial growth, well diffusion", "system": "ATCC27853", "conditions": "500 µg/mL, 24 h", "quantity": "inhibition zone", "value": "14 mm"}
{"SMILES": "CC(=O)N[C@H](CCCCN)C(=O)N[C@H](CC(C)C)C(=O)N[C@H](CCCCN)C(=O)N[C@H](CO)C(=O)N[C@H](CC(C)C)C(=O)N[C@H](CC(C)C)C(=O)N[C@H](CCCCN)C(=O)N[C@@H](C(=O)N[C@H](CC(C)C)C(=O)N[C@H](CO)C(=O)N[C@H](CCCCN)C(=O)N[C@H](C)C(=O)N[C@H](CCCCN)C(=O)N[C@H](CCCCN)C(=O)N[C@H](CCCCN)C(=O)N[C@H](CCCCN)C(=O)N[C@H](CC(C)C)C(=O)N[C@H](CCCCN)C(=O)N[C@@H](C(=O)N[C@H](CC(C)C)C(=O)N[C@H](CC(C)C)C(=O)N[C@H](CCCCN)C(=O)N[C@H](C)C(=O)N[C@H](CC(C)C)C(=O)N[C@H](CO)C(=O)N[C@H](CCCCN)C(N)=O)[C@H](C)O)[C@H](C)O", "system": "six isolates", "conditions": "24 h, 37 °C", "quantity": "MIC geometric mean", "value": "1.5 µM"}
{"SMILES": "O=c1c(Cl)c(Cl)cnn1Cc1ccccc1Cl", "assay": "bacterial growth", "system": "wild type, agar", "conditions": "50 µM", "quantity": "colony size", "value": "no effect"}
{"SMILES": "NCC1OC(OC2C(N)CC(N)C(OC3OC(CO)C(O)C(N)C3O)C2OCCCCCCCCCCCCn2cc(CNc3nc(NCc4cn(CCCCCCCCCCCCOC5C(OC6OC(CN)C(O)CC6N)C(N)CC(N)C5OC5OC(CO)C(O)C(N)C5O)nn4)nc(NCc4cn(CCCCCCCCCCCCOC5C(OC6OC(CN)C(O)CC6N)C(N)CC(N)C5OC5OC(CO)C(O)C(N)C5O)nn4)n3)nn2)C(N)CC1O (centres unmarked)", "system": "PAO1, CAMHB", "conditions": "8 µg/mL, added: rifampicin", "quantity": "fold potentiation of rifampicin", "value": "128 fold"}
{"SMILES": "CCCCCCCCCC(=O)NCCCC[C@@H](NC(=O)[C@@H](CC(C)C)NC(=O)[C@@H](CCCCN)NC(=O)[C@@H](CCCCNC(=O)[C@@H](CC(C)C)NC(=O)[C@@H](CCN)NC(=O)[C@@H](CCCCNC(=O)[C@@H](Cc1ccccc1)NC(=O)[C@H](N)CCCN)NC(=O)[C@@H](Cc1ccccc1)NC(=O)[C@H](N)CCCN)NC(=O)[C@@H](CC(C)C)NC(=O)[C@@H](CCN)NC(=O)[C@@H](CCCCNC(=O)[C@@H](Cc1ccccc1)NC(=O)[C@H](N)CCCN)NC(=O)[C@@H](Cc1ccccc1)NC(=O)[C@H](N)CCCN)C(N)=O", "assay": "biofilm formation", "system": "PAO1", "conditions": "24 h, 37 °C", "quantity": "MBIC", "value": "8 µg/mL"}
{"SMILES": "COc1cc(OC)c2c(c1)C(=O)c1cc3oc(=O)cc(-c4ccc(Cl)cc4)c3c(O)c1C2=O", "system": "MTCC 2453", "conditions": "100 µg/disc", "quantity": "zone of inhibition", "value": "8 mm"}
{"SMILES": "c1ccc(CSc2nnc(C34CC5CC(CC(C5)C3)C4)n2-c2ccccc2)cc1", "system": "IFO 3448", "conditions": "200 µg/disc, 24 h, 37 °C", "quantity": "inhibition zone diameter", "value": "< 10 mm"}
{"SMILES": "CC[C@H](C)[C@H](NC(=O)[C@H](Cc1c[nH]cn1)NC(=O)[C@H](CCCCNC(=O)[C@@H](NC(=O)[C@H](CCCCN)NC(=O)[C@H](Cc1ccccc1)NC(=O)[C@H](CCCCNC(=O)[C@H](CC(C)C)NC(=O)[C@@H]1CCCN1C(=O)[C@H](CCCCN)NC(=O)C[C@@H]1O[C@@H](C)[C@@H](O)[C@@H](O)[C@@H]1O)NC(=O)[C@H](CC(C)C)NC(=O)[C@@H]1CCCN1C(=O)[C@H](CCCCN)NC(=O)C[C@@H]1O[C@@H](C)[C@@H](O)[C@@H](O)[C@@H]1O)[C@@H](C)CC)NC(=O)[C@@H](NC(=O)[C@H](CCCCN)NC(=O)[C@H](Cc1ccccc1)NC(=O)[C@H](CCCCNC(=O)[C@H](CC(C)C)NC(=O)[C@@H]1CCCN1C(=O)[C@H](CCCCN)NC(=O)C[C@@H]1O[C@@H](C)[C@@H](O)[C@@H](O)[C@@H]1O)NC(=O)[C@H](CC(C)C)NC(=O)[C@@H]1CCCN1C(=O)[C@H](CCCCN)NC(=O)C[C@@H]1O[C@@H](C)[C@@H](O)[C@@H](O)[C@@H]1O)[C@@H](C)CC)C(N)=O", "system": "PAO1", "quantity": "concentration for 100% biofilm dispersal", "value": "50 µM"}
{"SMILES": "COc1c2c(cc3oc(=O)cc(C)c13)C(=O)c1cc(C)cc(O)c1C2=O", "system": "MTCC 2453", "conditions": "100 µg/disc", "quantity": "zone of inhibition", "value": "< 8 mm"}
{"SMILES": "Cc1ccc2ccc3ccc(C)nc3c2n1.Cc1ccc2ccc3ccc(C)nc3c2n1.O.[Cl-].[Cl-].[Cl-].[Yb+3]", "assay": "bacterial growth", "quantity": "inoculation time", "value": "48 h"}
{"note": "A few entries again:"}
{"SMILES": "COc1cc(OC)c2c(c1)C(=O)c1cc3oc(=O)cc(-c4ccc(Cl)cc4)c3c(O)c1C2=O", "system": "MTCC 2453", "conditions": "100 µg/disc", "quantity": "zone of inhibition", "value": "8 mm"}
{"SMILES": "c1ccc(CSc2nnc(C34CC5CC(CC(C5)C3)C4)n2-c2ccccc2)cc1", "system": "IFO 3448", "conditions": "200 µg/disc, 24 h, 37 °C", "quantity": "inhibition zone diameter", "value": "< 10 mm"}
